Experimental data of several laboratories.
Compare with care: the assays were run in different laboratories. “And” joins repeats or separate records; there may be more than shown. ± marks the error that the study gave.
B1: EFR3A 721-791 (Homo sapiens, UniProt Q14156); chain SNTEEITFEALKKAIDTSGMEEQEKEKRRLVIEKFQKAPFEEIAAQCESKANLLHDRLAQILELTIRPPPS
B2: CDC48A 1-190 (Arabidopsis thaliana, UniProt P54609); chain MSTPAESSDSKSKKDFSTAILERKKSPNRLVVDEAINDDNSVVSLHPATMEKLQLFRGDTILIKGKKRKDTVCIALADETCEEPKIRMNKVVRSNLRVRLGDVISVHQCPDVKYGKRVHILPVDDTVEGVTGNLFDAYLKPYFLEAYRPVRKGDLFLVRGGMRSVEFKVIETDPAEYCVVAPDTEIFCEG
B3: BRAF kinase 448-723 K723G/P722S/S720E/L716E/S713E/Q709R/L706S/A688R/Y673S/R671A/K630S/V600E/L588N/Q562R (Homo sapiens, UniProt P15056); sequence looked up; chain DDWEIPDGQITVGQRIGSGSFGTVYKGKWHGDVAVKMLNVTAPTPQQLQAFKNEVGVLRKTRHVNILLFMGYSTKPQLAIVTQWCEGSSLYHHLHASETKFEMKKLIDIARQTARGMDYLHAKSIIHRDLKSNNIFLHEDNTVKIGDFGLATEKSRWSGSHQFEQLSGSILWMAPEVIRMQDSNPYSFQSDVYAFGIVLYELMTGQLPYSNINNRDQIIFMVGAGSLSPDLSKVRSNCPKRMKRLMAECLKKKRDERPSFPRILAEIEELARELSG
B4: IL23R 24-355 (Homo sapiens, UniProt Q5VWK5); sequence looked up; chain GITNINCSGHIWVEPATIFKMGMNISIYCQAAIKNCQPRKLHFYKNGIKERFQITRINKTTARLWYKNFLEPHASMYCTAECPKHFQETLICGKDISSGYPPDIPDEVTCVIYEYSGNMTCTWNAGKLTYIDTKYVVHVKSLETEEEQQYLTSSYINISTDSLQGGKKYLVWVQAANALGMEESKQLQIHLDDIVIPSAAVISRAETINATVPKTIIYWDSQTTIEKVSCEMRYKATTNQTWNVKEFDTNFTYVQQSEFYLEPNIKYVFQVRCQETGKRYWQPWSSLFFHKTPETVPQVTSKAFQHDTWNSGLTVASISTGHLTSDNRGDIG
B5: KLRK1 73-216 (Homo sapiens, UniProt P26718); sequence looked up; chain IWSAVFLNSLFNQEVQIPLTESYCGPCPKNWICYKNNCYQFFDESKNWYESQASCMSQNASLLKVYSKEDQDLLKLVKSYHWMGLVHIPTNGSWQWEDGSILSPNLLTIIEMQKGDCALYASSFKGYIENCSTPNTYICMQRTV
UniProt Q7Y175, sequence (whole entry, looked up): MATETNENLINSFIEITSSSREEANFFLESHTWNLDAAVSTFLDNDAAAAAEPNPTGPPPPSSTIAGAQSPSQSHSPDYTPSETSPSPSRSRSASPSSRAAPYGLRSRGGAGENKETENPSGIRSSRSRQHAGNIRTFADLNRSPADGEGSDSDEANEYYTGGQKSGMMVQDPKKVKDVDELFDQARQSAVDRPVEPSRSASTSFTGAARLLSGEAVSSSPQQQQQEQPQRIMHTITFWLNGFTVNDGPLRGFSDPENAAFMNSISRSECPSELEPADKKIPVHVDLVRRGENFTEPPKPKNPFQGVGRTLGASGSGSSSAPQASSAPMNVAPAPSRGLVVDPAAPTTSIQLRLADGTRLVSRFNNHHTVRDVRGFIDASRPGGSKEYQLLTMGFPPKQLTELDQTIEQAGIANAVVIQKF
UniProt Q29983, sequence (whole entry, looked up): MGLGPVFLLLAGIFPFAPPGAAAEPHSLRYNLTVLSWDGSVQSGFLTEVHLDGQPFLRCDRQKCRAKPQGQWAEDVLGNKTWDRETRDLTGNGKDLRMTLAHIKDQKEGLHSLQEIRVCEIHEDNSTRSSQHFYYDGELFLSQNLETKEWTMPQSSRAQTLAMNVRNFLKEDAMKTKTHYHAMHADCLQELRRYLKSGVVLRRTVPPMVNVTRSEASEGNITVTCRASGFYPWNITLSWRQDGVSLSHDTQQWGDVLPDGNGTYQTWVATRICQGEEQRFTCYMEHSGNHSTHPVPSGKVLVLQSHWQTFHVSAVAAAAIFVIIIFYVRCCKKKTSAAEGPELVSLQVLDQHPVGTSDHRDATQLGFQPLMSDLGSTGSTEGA

Substance | partner | assay | system | conditions | koff
KKVTFGLNRNMTAEFKKTDKSILVSPTGPSRVAFDPEQKPLHGVLK (RRP1B 682-727 (Homo sapiens, UniProt Q14684)) | PPP1CA 7-330 Q20R (Homo sapiens, UniProt P62136) | SPR | – | – | 0.012 s⁻¹
B1 (EFR3A 721-791) | TTC7A/FAM126A FAM126A 1-308 | BLI | – | – | 0.000258 s⁻¹
CTLA4 extracellular domain, monomer (Homo sapiens) | ipilimumab Fab | SPR | – | – | 0.0281 s⁻¹ and 0.0206 s⁻¹
DARPin G3 fragment | ERBB2 23-652 (UniProt P04626) | SPR | – | – | 4.93e-05 s⁻¹ and 5.45e-05 s⁻¹ and 4.84e-05 s⁻¹ and 6.28e-05 s⁻¹
B2 (CDC48A 1-190) | PUX5 (Arabidopsis thaliana, UniProt Q7Y175) | BLI | – | 25 °C | 0.13 ± 0.01 s⁻¹
B3 | MAP2K1 (Homo sapiens, UniProt Q02750) | BLI | – | – | 0.00169 s⁻¹
B4 (IL23R 24-355) | IL23A/IL12B mature heterodimer, glycosylated (Homo sapiens) | SPR | Fc fusion | – | 0.0111 s⁻¹
B5 (KLRK1 73-216) | MICA high-affinity allele 24-307 (Homo sapiens, UniProt Q29983) | SPR | Fc fusion | – | 0.0033 s⁻¹
ptsH fragment (Escherichia coli) (sequence not shown) | ptsI fragment (Escherichia coli) | NMR relaxation dispersion | – | with BSA | 10200 s⁻¹
CALLLSAPRR (GOT2 (Gallus gallus); fluorescein label) | HSPA9 mature L450A (Homo sapiens, UniProt P38646) | FP | peptide | – | 0.026 s⁻¹

Excerpt of the above:
Substance | partner | assay | system | conditions | koff
B5 (KLRK1 73-216) | MICA high-affinity allele 24-307 (Homo sapiens, UniProt Q29983) | SPR | Fc fusion | – | 0.0033 s⁻¹
